# Published values collected from several papers.
# Parts stem from different laboratories: compare values within a part only.

# Set 1
# Target: Histone acetyltransferase KAT6A, winged helix 1, GST fusion (KAT6A, Homo sapiens, UniProt Q92794, residues 1-85)
# Method: protein binding microarray
# Molecule type: double-stranded DNA, one strand shown
# Sample: in vitro
# Tested at: not given
# Notes: 8-mer, flanks averaged, mean of 2 arrays, mostly near background
# Relative to: not given
# Direction: higher = stronger binding
# Residues (chain): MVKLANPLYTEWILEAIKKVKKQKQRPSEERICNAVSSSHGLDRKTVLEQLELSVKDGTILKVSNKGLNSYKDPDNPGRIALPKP
Oligonucleotide,E-score
GAACGCTA,0.0406
CGCCCCAC,0.0291
CCTCCGGC,0.179
ACACAAAG,-0.172
CCCGTAAA,0.273
GCATGGCC,0.0761
ATGATATC,-0.169
AACACATC,-0.158

# Set 2
# Target: Interferon regulatory factor 5, full length, phosphomimetic (IRF5, Homo sapiens, UniProt Q13568-2, residues 1-514, S451D/S453D/S456D/S462D)
# Method: protein-binding microarray
# Molecule type: double-stranded DNA, one strand shown
# Sample: in vitro
# Tested at: 940 nM top
# Notes: 60-bp whole probe
# Added: salmon DNA 0.4 mg/ml
# Relative to: random background probes
# Direction: higher = stronger binding
# All sequences stand within: GCCTAGCAC … GTCTTGATTCGCTTGACGCTGCTG
Oligonucleotide,fitted relative affinity [z-score]
GGCGGACTGGGTATCGGGACGTGCTAG,0.596
TTCACTTTCCAAAACATGAAGTGCTAG,0.531
GACTATATCAGTATCGAGACGTGCTAG,1.97
TTAGATATCGGGACTGGATTGGTGCTA,0.0845
TTAGGATTCGACACTGGGTTAGTGCTA,-0.0608
TTAGGATTCGGTATCGGTTAGTGCTAG,6.81
TTAGGTTTCGGGTTTCGGTAAGTGCTA,11.5
GACGGTCACCTTATCCTGACGTGCTAG,0.223

# Set 3
# Target: Replicase polyprotein 1ab, nsp13 helicase (rep, Severe acute respiratory syndrome coronavirus 2, UniProt P0DTD1)
# Action: inhibitor
# Tested at: 20 µM
Structure (SMILES),inhibition [%]
O=C(Nc1c(-c2cccs2)nc2ccccn12)c1ccc(Cl)cc1,1.7
CC(=O)N1N=C(c2ccc(N)cc2)c2cc3c(cc2C[C@H]1C)OCO3,13.3
CN(C)C(=O)n1nnnc1Cc1ccc(-c2ccccc2)cc1,5.02
N#CC(=C(/N)Sc1ccccc1N)/C(C#N)=C(\N)Sc1ccccc1N,4.12
CC1=NN(c2ccccc2)C(=O)C1,-2.65
CC(C)CCN1c2nc(Nc3cc(F)c(O)c(F)c3)ncc2N(C)C(=O)C1C (centres unmarked),-1.33
O=C(O)c1ccc(-c2c[nH]c3ncc(-c4ccccc4)cc23)cc1C1CCCC1,7.84
COc1cc(C(=O)OCCCN2CCCN(CCCOC(=O)c3cc(OC)c(OC)c(OC)c3)CC2)cc(OC)c1OC,1.19
CCCCCCCCCCCCCCCCCCCCCCO,6.61
CC(C)[C@@H](N)C(=O)O,1.71
O=C(O)CCCCCCCCCCCCCCc1ccc(I)cc1,64.5
O=C(NOCC(O)CO)c1cc(Br)c(F)c(F)c1Nc1ccc(I)cc1F (centres unmarked),4.55
C[C@@H](c1ccc2nccn2c1)n1nnc2ncc(-c3cnn(C)c3)nc21,8.07
COc1cc2c(Oc3ccc(NC(=O)C4(C(=O)Nc5ccc(F)cc5)CC4)cc3F)ccnc2cc1OCCCN1CCOCC1,-1.46
CN(C)[C@@H]1C(O)=C(C(N)=O)C(=O)[C@@]2(O)C(O)=C3C(=O)c4c(O)cccc4[C@@](C)(O)[C@H]3C[C@@H]12,0.55
CCc1cc2cc(OC)c(OC)cc2c(Cc2ccccc2)n1,0.24
COc1ccccc1OCC(O)CO (centres unmarked),1.07
CNC[C@H](O)c1ccc(O)c(O)c1,-0.93
NCCCCCc1c[nH]cn1,-3.93
Cc1ccccc1N=Nc1ccc(NC(=O)c2ccnn2C)c(C)c1,2.17
O=C(CCCCC(=O)Nc1c(I)cc(I)c(C(=O)O)c1I)Nc1c(I)cc(I)c(C(=O)O)c1I,-2.46
CC(C)=CCC/C(C)=C/CC/C(C)=C/CSc1ccccc1C(=O)O,5.11
CC(C(=O)O)c1ccc(-c2ccccc2)c(F)c1 (centres unmarked),6.46
OC[C@H]1O[C@@H](O[C@@H]2[C@@H](CO)OC(O)(CO)[C@H]2O)[C@H](O)[C@@H](O)[C@H]1O (mixture of isomers),1.67
C[C@H](Nc1ncnc2[nH]cnc12)c1nc2ccc(F)cc2c(=O)n1-c1ccccc1,3.51

# Set 4
# Target: Sal-like protein 4, full length isoform B (SALL4, Homo sapiens, UniProt Q9UJQ4-2, residues 1-616)
# Method: universal PBM
# Molecule type: double-stranded DNA, one strand shown
# Sample: in vitro
# Tested at: not given
# Notes: 8-mer, flanks averaged, mean of replicates
# Direction: higher = stronger binding
# Target sequence (chain): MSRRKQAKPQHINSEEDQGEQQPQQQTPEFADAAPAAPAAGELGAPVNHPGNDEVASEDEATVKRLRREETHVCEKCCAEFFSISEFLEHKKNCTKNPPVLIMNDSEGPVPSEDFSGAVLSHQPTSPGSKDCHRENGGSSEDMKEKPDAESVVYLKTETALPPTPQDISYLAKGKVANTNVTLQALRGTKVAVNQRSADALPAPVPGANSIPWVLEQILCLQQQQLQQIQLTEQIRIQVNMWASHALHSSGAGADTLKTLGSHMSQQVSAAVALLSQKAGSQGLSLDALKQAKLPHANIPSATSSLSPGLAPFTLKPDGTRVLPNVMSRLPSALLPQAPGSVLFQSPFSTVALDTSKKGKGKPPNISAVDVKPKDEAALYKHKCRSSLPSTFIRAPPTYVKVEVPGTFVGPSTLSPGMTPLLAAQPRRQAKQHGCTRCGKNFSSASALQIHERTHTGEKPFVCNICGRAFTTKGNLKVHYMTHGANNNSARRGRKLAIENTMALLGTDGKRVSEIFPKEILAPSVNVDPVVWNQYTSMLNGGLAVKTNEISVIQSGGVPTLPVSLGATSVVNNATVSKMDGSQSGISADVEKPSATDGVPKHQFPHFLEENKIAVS
Oligonucleotide,E-score
AGCCCTTC,-0.169
CCATCCGA,0.00496
CGAGAGAA,-0.0783
CCCATAAG,0.012
CGATATGA,0.225
ATGATTAA,0.331
ATAATACA,0.391
CGTAAACC,-0.108

# Other studies, line by line
# rep main protease: Replicase polyprotein 1ab, main protease (rep, Severe acute respiratory syndrome coronavirus 2, UniProt P0DTD1)
Structure (SMILES),target or system,assay,system,conditions,how to read,quantity,value
c1ccc2[nH]c(-c3cscn3)nc2c1,HEK-293T,"pseudovirus infection, FDA-approved drug library screen",VSV pseudotyped with SARS-CoV-2 spike,"10 µM, 16 h",relative to: vehicle-treated,GFP-positive cells,77.8%
Oc1cc2c(cc1O)C(Cc1cccc3ccccc13)NCC2 (centres unmarked),rep main protease,"enzyme activity, inhibitor",,"20 µM, hit confirmation",,inhibition,1.7%
C[C@H](O)C(=O)Nc1c(I)c(C(=O)NC(CO)CO)c(I)c(C(=O)NC(CO)CO)c1I,HEK-293T/ACE2,pseudovirus infection,VSV pseudotyped with SARS-CoV-2 spike,"10 µM, 16 h",relative to: vehicle-treated,GFP-positive cells,62.7%
O=[N+]([O-])/C=C/c1ccc2c(c1)OCO2,rep main protease,"enzyme activity, inhibitor",,"20 µM, primary screen",,inhibition,98.8%

# For quick reference, copied from above (set 3):
Structure (SMILES),inhibition [%]
CC(C)[C@@H](N)C(=O)O,1.71
CN(C)C(=O)n1nnnc1Cc1ccc(-c2ccccc2)cc1,5.02
COc1ccccc1OCC(O)CO (centres unmarked),1.07
O=C(CCCCC(=O)Nc1c(I)cc(I)c(C(=O)O)c1I)Nc1c(I)cc(I)c(C(=O)O)c1I,-2.46
C[C@H](Nc1ncnc2[nH]cnc12)c1nc2ccc(F)cc2c(=O)n1-c1ccccc1,3.51
CC(C(=O)O)c1ccc(-c2ccccc2)c(F)c1 (centres unmarked),6.46
CN(C)[C@@H]1C(O)=C(C(N)=O)C(=O)[C@@]2(O)C(O)=C3C(=O)c4c(O)cccc4[C@@](C)(O)[C@H]3C[C@@H]12,0.55
